Earlier results that unrelated publications cite.
± marks the error that the study gave. Ends that are not written are not given here.

Molecule | tested on | test | test system | conditions | scale | measurement | value
CC(=O)O[C@H]1Cc2ccccc2N(C(N)=O)c2ccccc21 |  |  | mouse pilocarpine chronic epilepsy | p.o., 300 mg/kg once daily, 6 weeks | baseline: vehicle | epileptiform discharge duration decrease | 74%
COCCOCCOCCOc1ccc(C2=N[C@@](C)(C(=O)O)CS2)c(O)c1 |  |  | bile duct-cannulated rats, non iron-overloaded | oral, 300 µmol/kg, 24 h, monosodium salt |  | iron clearing efficiency | 5.5 ± 1.9%
C[C@]12CC[C@@H]3c4ccc(O)cc4CC[C@H]3[C@@H]1CC[C@H]2O | HT-22 | cell protection |  | added: iodoacetic acid 20 µM |  | EC50 | 3.38 µM
CCCC(CCC)C(=O)O |  | protection from seizures | CF-1 mice, 6 Hz corneal stimulation | ip, added: 22 mA |  | ED50 | 41.5 mg/kg
C[C@@]12CC=C3c4ccc(O)cc4CC[C@@H]3[C@H]1CC[C@H]2O | HT-22 | cell protection |  | added: iodoacetic acid 40 µM |  | EC50 | 0.679 µM
KCNTATCATQRLANFLVHSSNNFGPILPPTNVGSNTY (Pramlintide; not fully specified (C-terminus, bridges); cysteine pairing not given here; sequence looked up) |  |  | peptide, obese humans | 360 µg twice daily, 6 months, completers, with lifestyle intervention | baseline: baseline | body weight loss | 7 to 8%
Nc1nc2c(ncn2[C@@H]2O[C@@H]3COP(=O)(O)O[C@H]3[C@H]2O)c(=O)[nH]1 | PDE4D | cyclic nucleotide hydrolysis, substrate or inhibitor, isothermal titration calorimetry |  |  |  | Km or Ki | 24.5 µM
CCCc1nn(C)c2c(=O)[nH]c(-c3cc(S(=O)(=O)N4CCN(C)CC4)ccc3OCC)nc12 |  | ambulatory blood pressure monitoring, refers to: MAP | healthy and hypertensive humans | 100 mg, evening dosing |  | blood pressure reduction | -5.3 mmHg
CC(=O)O[C@H]1C(=O)[C@@]2(C)[C@H]([C@H](OC(=O)c3ccccc3)[C@]3(O)C[C@H](OC(=O)[C@H](O)[C@@H](NC(=O)c4ccccc4)c4ccccc4)C(C)=C1C3(C)C)[C@]1(OC(C)=O)CO[C@@H]1C[C@@H]2O |  |  | mouse brain metastasis model | dose not given, highest drug concentration subset |  | brain metastases with cytotoxicity | 10%
CC[C@H]1OC(=O)[C@H](C)[C@@H](O[C@H]2C[C@@](C)(OC)[C@@H](O)[C@H](C)O2)[C@H](C)[C@@H](O[C@@H]2O[C@H](C)C[C@H](N(C)C)[C@H]2O)[C@](C)(O)C[C@@H](C)C(=O)[C@H](C)[C@@H](O)[C@]1(C)O |  |  | diabetic gastroparesis patients | intravenous, dose not given, 60 min |  | gastric retention | 21%
CN[C@H]1C(=O)N[C@@H]2Cc3ccc(cc3)Oc3cc4cc(c3O[C@@H]3O[C@H](C(=O)O)[C@@H](O)[C@H](O)[C@H]3NC(=O)CCCCCCCCC(C)C)Oc3ccc(cc3Cl)[C@@H](O)[C@@H]3NC(=O)[C@H](NC(=O)[C@@H]4NC(=O)[C@@H](NC2=O)c2cc(cc(O)c2Cl)Oc2cc1ccc2O)c1ccc(O)c(c1)-c1c(O[C@H]2O[C@H](CO)[C@@H](O)[C@H](O)[C@@H]2O)cc(O)cc1[C@@H](C(=O)NCCCN(C)C)NC3=O |  |  | human, ABSSSI, microbiological ITT population | dose not given, 48 to 72 h, double-dose regimen |  | clinical response rate | 98.6%
Nc1nc(Cl)nc2c1ncn2[C@H]1C[C@H](O)[C@@H](CO)O1 |  |  | paediatric AML patients | dose not given, before induction therapy |  | complete remission rate | 27%
COc1cc2nccc(Oc3ccc(NC(=O)C4(C(=O)Nc5ccc(F)cc5)CC4)cc3)c2cc1OC |  |  | human EGFR-mutant NSCLC patients | 40 mg daily, progressed on EGFR TKI, added: erlotinib |  | response rate | 11%
CC(C)Cc1ccc(C(C)C(=O)O)cc1 (stereo not drawn) |  |  | postmenopausal women | dose not given, long-term regular use |  | breast cancer risk reduction | 49%
O=c1c2nc(Br)n([C@@H]3O[C@@H]4COP(=O)(O)O[C@H]4[C@H]3O)c2nc2[nH]c(-c3ccccc3)cn12 | PDE2A | cyclic nucleotide hydrolysis, substrate or inhibitor, isothermal titration calorimetry |  |  |  | Km or Ki | 98.6 µM
O=c1c(O)c(-c2ccc(O)c(O)c2)oc2cc(O)cc(O)c12 |  | DPPH radical scavenging |  | added: DPPH 50 µM |  | EC50 | 6.22 µM
C[C@]1(c2nc3c(C(N)=O)cccc3[nH]2)CCCN1 |  |  | human, metastatic TNBC | 300 mg twice daily, days 1-14, added: cisplatin 75 mg/m^2 |  | median progression-free survival | 5.7 months
O=c1c(O)c(-c2ccc(O)c(O)c2)oc2cc(O)ccc12 |  | hydroxyl radical scavenging |  |  |  | IC50 | 3 to 5 µM

Repeated from above:
Molecule | tested on | test | test system | conditions | scale | measurement | value
COc1cc2nccc(Oc3ccc(NC(=O)C4(C(=O)Nc5ccc(F)cc5)CC4)cc3)c2cc1OC |  |  | human EGFR-mutant NSCLC patients | 40 mg daily, progressed on EGFR TKI, added: erlotinib |  | response rate | 11%
C[C@@]12CC=C3c4ccc(O)cc4CC[C@@H]3[C@H]1CC[C@H]2O | HT-22 | cell protection |  | added: iodoacetic acid 40 µM |  | EC50 | 0.679 µM
